Results from different studies.
Protocols differ between the studies behind these lines.
Target: Homeodomain-interacting protein kinase 4 (HIPK4, Homo sapiens, UniProt Q8NE63)
Residues used in one study (Q8NE63 1-616): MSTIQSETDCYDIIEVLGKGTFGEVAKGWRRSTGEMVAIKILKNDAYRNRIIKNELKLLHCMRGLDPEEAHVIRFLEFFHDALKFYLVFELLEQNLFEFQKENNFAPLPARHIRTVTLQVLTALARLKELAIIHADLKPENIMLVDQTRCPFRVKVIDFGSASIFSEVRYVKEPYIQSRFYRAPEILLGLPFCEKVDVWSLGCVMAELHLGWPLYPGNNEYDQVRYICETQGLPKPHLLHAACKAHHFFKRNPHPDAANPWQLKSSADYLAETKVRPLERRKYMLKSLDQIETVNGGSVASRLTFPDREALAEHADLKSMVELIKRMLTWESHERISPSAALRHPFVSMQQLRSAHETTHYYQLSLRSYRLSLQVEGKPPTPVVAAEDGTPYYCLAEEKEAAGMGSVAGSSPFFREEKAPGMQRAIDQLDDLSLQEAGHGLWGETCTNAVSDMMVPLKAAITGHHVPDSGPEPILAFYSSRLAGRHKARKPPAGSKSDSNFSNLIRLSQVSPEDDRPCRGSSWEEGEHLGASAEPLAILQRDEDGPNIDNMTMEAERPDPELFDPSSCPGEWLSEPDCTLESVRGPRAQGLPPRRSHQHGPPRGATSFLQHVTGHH

Cc1cnc2nc1Nc1cccc(c1)COC/C=C/COCc1cc(ccc1OCCN1CCOCC1)N2 gave a remaining binding of 89% (binding; 0.1 µM).
With CN1CCN(Cc2ccc(-c3ccc(CO[C@H]4CCC[C@@H]4NC(=O)c4cc(-c5cnn(C)c5)cnc4N)cc3)cc2)CC1 the inhibition was 7% (enzyme activity, inhibitor; 0.1 µM).
For COc1cc(Nc2nccc(-c3cnn4nc(OC)ccc34)n2)cc(C(F)(F)F)c1, the remaining binding was 100% (binding, competition with immobilised ligand; 1 µM).
NC(=O)C[C@H]1CCc2sc3ncnc(O[C@H]4CC[C@H](N5CCOCC5)CC4)c3c21 gave an inhibition of 4% (enzyme activity, inhibitor; 10 µM).
Cc1cc(NC(=O)[C@H](O)c2cc(F)cc(F)c2)ccc1-c1cnc(N)c(C(=O)NC(C)C)c1 gave a remaining binding of 77% (binding, competition with immobilised ligand; 1 µM).
O=C(Cc1ccc(OCc2ccccc2)cc1)NC1(C(=O)O)CCN(C(=O)c2ccc(-c3cccc(Cl)c3)cc2)CC1: “activity vs control” 134% (enzyme activity, inhibitor; 10 µM).
With Cc1cccc(O[C@H]2CCC[C@@H](C(C)CNCc3ccncc3)C2)c1 (relative stereo) the inhibition was 0% (enzyme activity, inhibitor; 1 µM).
C=CC(=O)N1CCc2ccc(-n3c(=O)ccc4cnc5ccc(-c6cnn(C)c6)cc5c43)cc21 gave a remaining binding of 99% (KINOMEscan; 1 µM; baseline: DMSO control).
The inhibition of C=CC(=O)Nc1cccc(-c2cnc3[nH]cc(C(=O)NC(C)(C)C)c3n2)c1 is reported as 37% (kinase activity; 0.1 µM).
CCN1CCN(Cc2ccc(C(=O)Nc3ccc(C)c(NCc4cnc5[nH]ccc5c4OC)c3)cc2C(F)(F)F)CC1 has a remaining binding of 22% (binding, competition with immobilised ligand; 1 µM).
The remaining activity of COC(=O)[C@@]1(C)C=C(C(=O)Nc2cccc(C(=O)Nc3ccc(Nc4nccc(-c5cccnc5)n4)c(C)c3)c2)C(=O)CC1 is reported as 94% (enzyme activity, inhibitor, radiometric; 1 µM).
With CNC(=O)C1CCN(c2cc(C)c(F)cc2NC(=O)c2ccc(-c3cc(O)ccc3C)c(C)c2)CC1 the remaining binding was 100% (binding, competition with immobilised ligand; 1 µM).
CNC(=O)C[C@H](Cc1ccc(C#N)cc1)NC(=O)c1cc(-c2ccc(CN[C@H](C)c3ccc(C)cc3)o2)ccc1Cl — result for “activity vs control”: 109% (enzyme activity, inhibitor; 1 µM).
With CN1CC[C@@H](COc2cnc(C#N)cc2-c2ccn3nc(NC(=O)C4CC4)cc3c2)C1 the inhibition was 3% (enzyme activity, inhibitor; 1 µM).
